Measurements pooled from the literature.
Parts stem from different laboratories: compare values within a part only.
Chain of UniProt O00444 (whole entry, looked up): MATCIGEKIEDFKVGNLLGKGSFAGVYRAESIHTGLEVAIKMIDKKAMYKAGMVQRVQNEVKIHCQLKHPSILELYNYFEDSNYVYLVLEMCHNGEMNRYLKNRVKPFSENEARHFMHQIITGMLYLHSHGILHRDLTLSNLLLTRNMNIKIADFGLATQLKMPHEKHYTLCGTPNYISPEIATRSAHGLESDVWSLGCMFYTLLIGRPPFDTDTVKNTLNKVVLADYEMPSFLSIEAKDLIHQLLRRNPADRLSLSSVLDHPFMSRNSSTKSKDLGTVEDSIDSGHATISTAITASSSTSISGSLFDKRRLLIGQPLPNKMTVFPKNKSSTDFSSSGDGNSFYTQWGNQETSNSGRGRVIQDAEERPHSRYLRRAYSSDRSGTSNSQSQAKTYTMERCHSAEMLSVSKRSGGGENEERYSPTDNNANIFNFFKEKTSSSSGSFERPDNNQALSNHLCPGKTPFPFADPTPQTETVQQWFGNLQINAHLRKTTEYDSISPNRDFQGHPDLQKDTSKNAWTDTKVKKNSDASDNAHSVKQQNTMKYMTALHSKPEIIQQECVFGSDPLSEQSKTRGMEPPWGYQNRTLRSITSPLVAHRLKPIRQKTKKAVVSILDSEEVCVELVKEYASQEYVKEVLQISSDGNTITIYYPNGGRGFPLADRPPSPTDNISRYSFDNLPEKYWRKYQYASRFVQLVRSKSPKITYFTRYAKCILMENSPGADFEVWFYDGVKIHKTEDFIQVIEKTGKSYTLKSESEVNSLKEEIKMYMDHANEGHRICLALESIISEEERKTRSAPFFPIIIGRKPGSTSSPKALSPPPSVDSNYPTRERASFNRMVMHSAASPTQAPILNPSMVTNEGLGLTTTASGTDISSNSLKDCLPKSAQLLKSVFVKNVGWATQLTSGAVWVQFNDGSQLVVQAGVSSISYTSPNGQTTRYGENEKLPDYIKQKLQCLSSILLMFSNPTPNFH
Chain of UniProt Q07002 (whole entry, looked up): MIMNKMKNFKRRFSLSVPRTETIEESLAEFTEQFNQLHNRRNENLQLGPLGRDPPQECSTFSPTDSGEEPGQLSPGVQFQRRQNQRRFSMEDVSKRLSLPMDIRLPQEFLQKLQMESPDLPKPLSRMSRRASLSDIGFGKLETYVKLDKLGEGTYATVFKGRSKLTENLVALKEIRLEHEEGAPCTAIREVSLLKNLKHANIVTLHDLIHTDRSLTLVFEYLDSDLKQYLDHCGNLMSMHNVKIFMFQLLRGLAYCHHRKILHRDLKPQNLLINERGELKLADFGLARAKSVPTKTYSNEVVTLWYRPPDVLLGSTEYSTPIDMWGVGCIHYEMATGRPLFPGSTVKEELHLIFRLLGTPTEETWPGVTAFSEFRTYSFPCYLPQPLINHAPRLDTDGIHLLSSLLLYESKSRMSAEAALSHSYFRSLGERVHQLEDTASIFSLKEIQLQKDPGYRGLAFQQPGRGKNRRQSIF
Chain of UniProt P15735 (whole entry, looked up): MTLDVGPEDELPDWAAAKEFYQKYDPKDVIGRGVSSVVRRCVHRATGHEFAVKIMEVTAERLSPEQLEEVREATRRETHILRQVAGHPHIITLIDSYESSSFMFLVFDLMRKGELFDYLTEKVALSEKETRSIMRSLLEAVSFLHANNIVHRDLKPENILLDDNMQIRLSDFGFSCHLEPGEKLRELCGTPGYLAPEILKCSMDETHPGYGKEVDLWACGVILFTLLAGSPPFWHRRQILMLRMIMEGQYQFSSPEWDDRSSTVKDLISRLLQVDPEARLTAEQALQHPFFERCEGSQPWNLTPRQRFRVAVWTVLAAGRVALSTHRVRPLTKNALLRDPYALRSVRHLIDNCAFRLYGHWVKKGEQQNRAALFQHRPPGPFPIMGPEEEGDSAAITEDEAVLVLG
Chain of UniProt Q13882 (whole entry, looked up): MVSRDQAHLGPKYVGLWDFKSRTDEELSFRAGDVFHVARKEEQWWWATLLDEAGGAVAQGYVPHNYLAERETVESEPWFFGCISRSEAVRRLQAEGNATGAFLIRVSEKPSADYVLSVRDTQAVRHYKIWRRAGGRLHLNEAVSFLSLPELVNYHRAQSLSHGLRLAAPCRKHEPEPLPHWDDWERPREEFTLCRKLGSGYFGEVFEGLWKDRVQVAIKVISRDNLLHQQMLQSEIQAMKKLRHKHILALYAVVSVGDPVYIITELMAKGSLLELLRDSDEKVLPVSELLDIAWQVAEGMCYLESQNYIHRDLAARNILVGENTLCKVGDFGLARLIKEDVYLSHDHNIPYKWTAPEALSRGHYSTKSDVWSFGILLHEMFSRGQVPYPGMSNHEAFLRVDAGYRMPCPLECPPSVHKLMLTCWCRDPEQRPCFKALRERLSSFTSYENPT
Chain of UniProt O15111 (whole entry, looked up): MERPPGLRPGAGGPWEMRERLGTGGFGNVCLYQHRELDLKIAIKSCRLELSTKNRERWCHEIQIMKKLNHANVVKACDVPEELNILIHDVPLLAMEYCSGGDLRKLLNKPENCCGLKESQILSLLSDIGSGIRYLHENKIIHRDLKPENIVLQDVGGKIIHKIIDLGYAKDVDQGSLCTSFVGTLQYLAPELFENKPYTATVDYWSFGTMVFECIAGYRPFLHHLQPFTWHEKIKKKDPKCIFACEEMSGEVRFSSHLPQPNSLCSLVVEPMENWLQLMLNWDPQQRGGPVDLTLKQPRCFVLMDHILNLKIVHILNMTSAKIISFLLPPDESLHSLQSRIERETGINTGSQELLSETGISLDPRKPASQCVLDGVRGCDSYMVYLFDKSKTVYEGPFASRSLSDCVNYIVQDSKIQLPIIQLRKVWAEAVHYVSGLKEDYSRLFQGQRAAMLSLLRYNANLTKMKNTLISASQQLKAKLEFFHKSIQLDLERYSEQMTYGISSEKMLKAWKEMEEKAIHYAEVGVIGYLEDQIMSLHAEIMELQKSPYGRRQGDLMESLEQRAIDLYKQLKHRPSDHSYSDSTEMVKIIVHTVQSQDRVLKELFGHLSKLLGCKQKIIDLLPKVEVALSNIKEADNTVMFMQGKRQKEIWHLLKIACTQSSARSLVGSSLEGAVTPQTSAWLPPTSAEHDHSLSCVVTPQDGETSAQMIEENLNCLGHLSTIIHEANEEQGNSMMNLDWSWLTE
Chain of UniProt P51812 (whole entry, looked up): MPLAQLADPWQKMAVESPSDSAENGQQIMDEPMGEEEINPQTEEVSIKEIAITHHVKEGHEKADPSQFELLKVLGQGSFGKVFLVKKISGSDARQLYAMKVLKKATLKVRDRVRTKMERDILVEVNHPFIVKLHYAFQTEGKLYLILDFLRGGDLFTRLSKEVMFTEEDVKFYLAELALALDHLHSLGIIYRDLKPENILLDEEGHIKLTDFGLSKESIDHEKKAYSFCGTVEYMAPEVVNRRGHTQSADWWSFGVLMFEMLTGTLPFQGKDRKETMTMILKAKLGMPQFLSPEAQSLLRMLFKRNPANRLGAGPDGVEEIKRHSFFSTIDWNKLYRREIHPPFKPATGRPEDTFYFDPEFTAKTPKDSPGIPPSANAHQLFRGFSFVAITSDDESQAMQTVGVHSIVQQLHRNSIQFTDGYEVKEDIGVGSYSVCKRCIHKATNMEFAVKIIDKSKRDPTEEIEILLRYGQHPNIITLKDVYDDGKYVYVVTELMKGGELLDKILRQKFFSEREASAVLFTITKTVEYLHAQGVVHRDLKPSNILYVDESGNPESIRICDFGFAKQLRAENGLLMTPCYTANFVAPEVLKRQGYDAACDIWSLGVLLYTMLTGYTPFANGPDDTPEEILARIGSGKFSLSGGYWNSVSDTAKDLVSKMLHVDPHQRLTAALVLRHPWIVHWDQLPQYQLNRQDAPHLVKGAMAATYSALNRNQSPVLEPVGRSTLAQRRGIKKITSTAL
Chain of UniProt P11362 (whole entry, looked up): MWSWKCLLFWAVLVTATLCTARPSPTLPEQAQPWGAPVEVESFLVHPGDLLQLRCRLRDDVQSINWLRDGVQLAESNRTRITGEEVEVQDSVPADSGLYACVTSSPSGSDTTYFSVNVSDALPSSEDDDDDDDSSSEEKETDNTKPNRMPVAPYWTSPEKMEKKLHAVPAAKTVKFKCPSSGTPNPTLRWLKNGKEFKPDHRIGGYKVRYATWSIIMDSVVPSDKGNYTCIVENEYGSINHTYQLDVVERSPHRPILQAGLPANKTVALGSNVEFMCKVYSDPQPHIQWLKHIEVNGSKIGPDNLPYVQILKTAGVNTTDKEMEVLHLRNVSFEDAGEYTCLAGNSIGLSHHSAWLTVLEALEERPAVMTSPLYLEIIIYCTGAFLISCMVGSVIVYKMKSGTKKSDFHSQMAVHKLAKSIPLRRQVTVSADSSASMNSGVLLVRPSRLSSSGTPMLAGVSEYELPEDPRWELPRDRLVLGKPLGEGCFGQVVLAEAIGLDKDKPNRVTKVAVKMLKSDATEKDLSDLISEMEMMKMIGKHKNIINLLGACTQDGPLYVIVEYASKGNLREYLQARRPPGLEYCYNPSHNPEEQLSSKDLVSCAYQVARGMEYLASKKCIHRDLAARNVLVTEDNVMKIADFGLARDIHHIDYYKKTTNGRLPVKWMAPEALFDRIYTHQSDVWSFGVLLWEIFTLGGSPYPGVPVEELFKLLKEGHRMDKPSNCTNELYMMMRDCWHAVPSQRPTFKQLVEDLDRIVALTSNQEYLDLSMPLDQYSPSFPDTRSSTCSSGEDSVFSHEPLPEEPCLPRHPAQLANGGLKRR

Block 1
SMILES: CC(=O)N[C@@H](Cc1c[nH]c2ccccc12)C(=O)N[C@@H](CCC(=O)C=[N+]=[N-])C(=O)OC(C)C
Species: mouse, EL4 tumour-bearing
Matrix: EL4 tumour
Dose: dose not given
Reference: vehicle
Endpoint: log2 fold change
item: tyrosine: 0.31
item: hippurate: 1.06
item: aspartate: 0.203

Block 2
SMILES: CO[C@@H](C)c1c(Nc2ccc([C@@H](N(C)C(=O)C3CCS(=O)(=O)CC3)C(F)(F)F)cc2)cnc2cc(Cl)nn12
Technique: competition with immobilised ligand
Tested at: 1 µM
Endpoint: remaining binding
Ribosomal protein S6 kinase alpha-3, N-terminal kinase domain (RPS6KA3, Homo sapiens, UniProt P51812); cell-free assay: 100%
Cyclin-dependent kinase 18 (CDK18, Homo sapiens, UniProt Q07002); cell-free assay: 99%
Fibroblast growth factor receptor 1 (FGFR1, Homo sapiens, UniProt P11362); cell-free assay: 91%
Tyrosine-protein kinase ABL1, non-phosphorylated (ABL1, Homo sapiens, UniProt P00519, T315I); cell-free assay: 100%
Phosphorylase b kinase gamma catalytic chain, liver/testis isoform (PHKG2, Homo sapiens, UniProt P15735); binding: 44%
Protein-tyrosine kinase 6 (PTK6, Homo sapiens, UniProt Q13882); cell-free assay: 100%
Tyrosine-protein kinase ABL1, phosphorylated (ABL1, Homo sapiens, UniProt P00519, H396P); cell-free assay: 98%
Inhibitor of nuclear factor kappa-B kinase subunit alpha (CHUK, Homo sapiens, UniProt O15111); cell-free assay: 100%
Serine/threonine-protein kinase PLK4 (PLK4, Homo sapiens, UniProt O00444); cell-free assay: 100%
Dual specificity mitogen-activated protein kinase kinase 5 (MAP2K5, Homo sapiens, UniProt Q13163); cell-free assay: 91%
Phosphatidylinositol 4,5-bisphosphate 3-kinase catalytic subunit alpha isoform (PIK3CA, Homo sapiens, UniProt P42336, Q546K); cell-free assay: 100%
Serine/threonine-protein kinase TAO3 (TAOK3, Homo sapiens, UniProt Q9H2K8); cell-free assay: 100%
Ribosomal protein S6 kinase alpha-5, N-terminal kinase domain (RPS6KA5, Homo sapiens, UniProt O75582); cell-free assay: 82%
Epidermal growth factor receptor (EGFR, Homo sapiens, UniProt P00533, A750P/del747-749); cell-free assay: 87%

Block 3
Organism: Sarcocystis neurona
Read-out: parasite growth
Tested at: 10 µM
Notes: secondary screen
Endpoint: inhibition
COc1ccnc(C[S+]([O-])c2nc3ccc(OC(F)F)cc3[nH]2)c1OC (stereo not shown): -92.6%
CC(=O)[C@@]1(O)CC[C@H]2[C@@H]3C[C@H](C)C4=CC(=O)C=C[C@]4(C)[C@@]3(F)[C@@H](O)C[C@@]21C: -52.7%
Nc1nc(N)c2nc(-c3ccccc3)c(N)nc2n1: -85.6%

Block 4
Cell line: HaCaT
Tested at: 100 µM
Time: 36 h
Endpoint: viability
CCN1CCN(Cc2ccc(Nc3ncc(F)c(-c4cc(F)c5nc(C)n(C(C)C)c5c4)n3)nc2)CC1: 82.1%
O=C(CO)[C@@H](O)[C@H](O)[C@H](O)CO: 90.5%
O=C(Nc1c(Cl)cncc1Cl)c1ccc(OC(F)F)c(OCC2CC2)c1: 70.2%

Block 5
Species: human
Matrix: microsomes or S9
Tested at: 2 µM
Time: 0.5 h
Endpoint: remaining compound
CC1(C)CC(NC(=O)CCCNc2nc(Cl)nc3[nH]cnc23)CC(C)(C)N1: > 100%
Brc1ccc(-c2n[nH]c(-c3ccccc3)c2-c2ncc[nH]2)cc1: 85.9%
Nc1ccc2nn(-c3ccccc3)nc2c1Br: 93.7%

Single results of other studies
Target: Nuclear factor NF-kappa-B p105 subunit, Rel homology region (Nfkb1, Mus musculus, UniProt P25799, residues 1-429)
Chain of UniProt P25799 (1-429, looked up): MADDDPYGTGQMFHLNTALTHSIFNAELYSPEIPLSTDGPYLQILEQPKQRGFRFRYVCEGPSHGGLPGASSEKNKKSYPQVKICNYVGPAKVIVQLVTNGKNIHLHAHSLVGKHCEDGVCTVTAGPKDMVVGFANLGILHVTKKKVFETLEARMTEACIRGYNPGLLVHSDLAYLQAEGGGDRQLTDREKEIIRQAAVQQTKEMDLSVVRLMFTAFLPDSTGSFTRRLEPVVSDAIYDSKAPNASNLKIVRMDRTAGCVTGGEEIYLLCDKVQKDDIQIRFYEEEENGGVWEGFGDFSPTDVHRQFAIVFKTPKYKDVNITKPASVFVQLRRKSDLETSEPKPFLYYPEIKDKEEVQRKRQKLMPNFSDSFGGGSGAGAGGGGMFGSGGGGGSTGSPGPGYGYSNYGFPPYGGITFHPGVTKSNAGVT
Technique: surface plasmon resonance
Molecule type: double-stranded DNA, one strand shown
Matrix: in vitro
Tested at: 1 nM to 1 µM
Notes: 10-bp κB site, 1:1 kinetic fit, 10 °C
Direction: higher = slower dissociation
GGGGGTTTTT — dissociation half-life: 437 s
GGAAATTCCC — dissociation half-life: 120 s

A few entries again (block 2):
Tyrosine-protein kinase ABL1, phosphorylated (ABL1, Homo sapiens, UniProt P00519, H396P); cell-free assay: 98%
Dual specificity mitogen-activated protein kinase kinase 5 (MAP2K5, Homo sapiens, UniProt Q13163); cell-free assay: 91%
